Assay results of several laboratories.
Numbered parts are unrelated; each lists some results of a single study.

Study 1 — technique: protein-binding microarray; molecule type: double-stranded DNA, one strand shown; medium: in vitro; tested at: 250 nM; notes: 60-bp whole probe; with: salmon DNA 0.4 mg/ml; baseline: random background probes; reading: higher = stronger binding; shared flanks, not repeated: GCCTAGCAC … GTCTTGATTCGCTTGACGCTGCTG
Target: Interferon regulatory factor 7, full length, phosphomimetic (IRF7, Homo sapiens, UniProt Q92985, residues 1-503, S101K/S471D/S472D/S475D/S476D/S477D/S483D/S484D/S487D)
Target sequence (chain): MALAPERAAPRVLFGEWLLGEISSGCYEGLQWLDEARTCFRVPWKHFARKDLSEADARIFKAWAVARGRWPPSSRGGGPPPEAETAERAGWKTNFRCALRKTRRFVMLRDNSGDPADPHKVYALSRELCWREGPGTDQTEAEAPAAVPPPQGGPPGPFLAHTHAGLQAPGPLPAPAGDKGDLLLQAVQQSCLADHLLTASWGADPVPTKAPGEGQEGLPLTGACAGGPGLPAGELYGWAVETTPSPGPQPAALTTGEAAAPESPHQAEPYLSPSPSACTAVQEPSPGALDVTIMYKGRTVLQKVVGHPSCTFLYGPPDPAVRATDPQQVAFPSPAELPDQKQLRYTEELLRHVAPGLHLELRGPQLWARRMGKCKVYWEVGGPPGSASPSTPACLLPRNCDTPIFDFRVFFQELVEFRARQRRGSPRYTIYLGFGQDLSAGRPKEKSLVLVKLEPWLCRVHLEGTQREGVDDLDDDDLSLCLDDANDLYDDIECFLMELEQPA
Strand	log fluorescence [z-score]
AAGCTCCTATCTTATGATATAGTGCTA	0.341
GGGTTCAAGAAGTAGGAGAAGTGCTAG	1.07
TCAACTCTGCCTCTAACACTGTGCTAG	-0.126
TTAGGTCTCCTTAACCTTTAGTGCTAG	-0.15
TTAGAATTCAGTTTCGATTAGTGCTAG	9.05
TTAGGTATCGGGTATCAGTTAGTGCTA	0.983
GTGTATATATAATATATATTCGTGCTA	0.325
TTAGGATTGGACACTGGGTTAGTGCTA	-0.347
GACGAACTGAGTTCCGAGACGTGCTAG	0.206
ACCCATCTCCAGTAGCCTAGCGTGCTA	0.234
TTAGATTTAGGGTTTCGATTAGTGCTA	6.07
TCACCTCTGTCATTTTCACTGTGCTAG	0.0615
TTAGATATCAGTATCCATTAGTGCTAG	0.0893
CTAGGTTTCCTTCTCCTTTAGTGCTAG	2.92
GACGGACTGCTTATCTTGACGTGCTAG	-0.554
TTAGGACTGGGGTTTCGGTTGGTGCTA	5.6
TTACGTATCCTACTGCTTTAGTGCTAG	0.321

Study 2 — technique: RNA Bind-n-Seq; molecule type: RNA; medium: in vitro; tested at: 200 nM; notes: whole 134-nt RNA, ends assumed; with: 150 mM KCl; baseline: input library; reading: higher = stronger binding
Target: Fragile X messenger ribonucleoprotein 1, C-terminal low-complexity region (Fmr1, Mus musculus, UniProt P35922)
Shared flanks, not repeated: GGGAGUUCUACAGUCCGACGAUC … UGGAAUUCUCGGGUGUCAAGG
Strand	log2 enrichment
AGUCCUGUGCUACACAUCGUAUGUACCGAAUCAAAUUUUUAAAUUUUUAAAUUUAAAAAAGUAUUAUGUUACGCCGUUCGGAUCUGCACU	-1.47
CUGUGCUACACAUCGUAUGUACCGAAUCGGAAAAAAAGGGGAAAAAAAGGGAAAAAAAGGGGAAAGUAUUAUGUUACGCCGUUCGGAUCU	-0.369
GGCACCCUUUGAAGGGGAGGAUGAAGAUGAACUCUUCCAAUCCAUCAUGGAACACAACGUAGCCUAUCCCAAGUCUAUGUCCAAGGAAGC	-0.0813
UAACUUUAGAGGAGGAUCUGAUGGAUAUGGUAGUGGACGUGGAUUUGGGGAUGGCUAUAAUGGGUAUGGAGGAGGACCUGGAGGUGGCAA	0.269
AAGUCCUGUGCUACACAUCGUAUGUACCGAAUCGGGGUUUUGGGGUUUUGGUUUUGGAAAGUAUUAUGUUACGCCGUUCGGAUCUGCACU	-0.2
CUCAAGUCCUGUGCUACACAUCGUAUGUACCGAAUCGGUGGUUUUUUUGGAGGAAAGUAUUAUGUUACGCCGUUCGGAUCUGCACUUCCA	0.0157
UCCUGUGCUACACAUCGUAUGUACCGAAUCGGGAAAGGGAAAAAAAGGGAAAAAAAGGGAAAGUAUUAUGUUACGCCGUUCGGAUCUGCA	-0.206
UAACUUUAGAGGAGGAUCUGAUGGAUAUGGCAGUGGACGUGGAUUUGGGGAUGGCUAUAAAGGGUAUGGAGGAGGACCUGGAGGUGGCAA	0.352
CCUGUGCUACACAUCGUAUGUACCGAAUCGGGGAAAAAAGGAAAAAAGGGGAAAAAAGGGGAAAGUAUUAUGUUACGCCGUUCGGAUCUG	-0.555
CCUCAAGUCCUGUGCUACACAUCGUAUGUACCGAAUCGGUGGGUGGGUGGGGAAAGUAUUAUGUUACGCCGUUCGGAUCUGCACUUCCAG	1.22
UUAGGGUCAUGUGAAGGUGGUGCGCUACUUAGUCAAAGAAGUCAAUCAGUUUCCAUCAGAUUCUGAAUGUAUGAGAUACAUAGCAACCAU	-1.48

Study 3 — technique: competition protein-binding microarray; molecule type: double-stranded DNA, one strand shown; medium: in vitro; tested at: 2 µM; with: Pho4 competitor, 0.05 µM; reading: higher = stronger binding; shared flanks, not repeated: … GTCTTGATTCGCTTGACGCTGCTG
Target: Centromere-binding protein 1, full length, His-tagged (CBF1, Saccharomyces cerevisiae, UniProt P17106, residues 1-351)
UniProt P17106, sequence (whole entry, looked up): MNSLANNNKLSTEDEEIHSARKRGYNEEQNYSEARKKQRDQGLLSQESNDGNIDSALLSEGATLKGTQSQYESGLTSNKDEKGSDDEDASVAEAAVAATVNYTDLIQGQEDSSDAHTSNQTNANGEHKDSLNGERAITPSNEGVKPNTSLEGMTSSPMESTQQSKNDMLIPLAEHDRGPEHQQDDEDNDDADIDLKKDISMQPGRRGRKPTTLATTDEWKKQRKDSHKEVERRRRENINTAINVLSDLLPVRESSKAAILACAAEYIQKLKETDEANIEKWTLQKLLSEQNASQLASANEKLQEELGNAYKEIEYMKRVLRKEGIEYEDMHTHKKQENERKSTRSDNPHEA
Notes: whole 60-bp probe, lowest competitor level
Strand	fluorescence intensity [a.u.]
TGCATATTCGTCAGTGACGTGCAAAATTCTTTTGAA	93.2
GAAAGCGTTCAGTCCCACGTTGAAAAAAATATATAA	87.2
CTTCAGATGTCAGACAACGTGCAAAATCTTTTTTTC	177
TCAAGAAGCAGTTTTATCGTGATGGGTTTCAAATCG	67.3
CAAATGCCATGATTGCACGTGCAAAGTTTTGAGAAG	2080
CGGGGTTAAGTTTGGTTCGTGGGTGGCTTGCAGCAG	63.9
TTGCTGTCCAGCAAAAACGTGATGGCCACTTCGGAC	376
CGGGGTTAAGTTTGCTGGGTGGGTGGCTTGCAGCAG	68.4
TTGGTATTTGCCATGCAGGTGATAGTGTTATGGGTT	125
ACTGTTGAAAAAAAGCACGCTGCAGTTGCATCAGGG	79.5
GAGCTCAAGGCGAGTCACGATGCAGAACTGGAACTT	150
CTTCTGTAAATTTGGGTAGTGGGTGGACGCGCCCCG	85.8
AGTTTCTTGAAGATCTGCATGACAAATAATGTTTGC	131
CTATGCAAGTTATGCCAGGTGACAGTGTTGAAATGG	166
AGTTGCCACAGGAGTTGCGTGACGGGTTGATAAAGG	104

Study 4 — technique: Sort-seq; item: YFP reporter; medium: E. coli; notes: PhoQ-PhoP variant library; with: 10 µM Mg2+; baseline: high Mg2+ state; reading: higher = stronger signaling
Substance: PhoQ, residues 284 288 289 292 302 303 NLSRDF
target	fold induction
PhoP, residues 12 14 15 18 19 SFCSL (Escherichia coli, UniProt P23836)	16.8
PhoP, residues 12 14 15 18 19 AYFRS (Escherichia coli, UniProt P23836)	16
PhoP, residues 12 14 15 18 19 HHYTI (Escherichia coli, UniProt P23836)	3.26

Some of these lines once more (study 3):
Strand	fluorescence intensity [a.u.]
TGCATATTCGTCAGTGACGTGCAAAATTCTTTTGAA	93.2
AGTTGCCACAGGAGTTGCGTGACGGGTTGATAAAGG	104
TTGGTATTTGCCATGCAGGTGATAGTGTTATGGGTT	125
CGGGGTTAAGTTTGGTTCGTGGGTGGCTTGCAGCAG	63.9
TCAAGAAGCAGTTTTATCGTGATGGGTTTCAAATCG	67.3
CTTCAGATGTCAGACAACGTGCAAAATCTTTTTTTC	177
AGTTTCTTGAAGATCTGCATGACAAATAATGTTTGC	131
